Published values collected from several papers.
Values joined by “and” are separate records of one study, mostly repeats; a detail may differ.
Target: Ephrin type-A receptor 4 (EPHA4, Homo sapiens, UniProt P54764)

Compound | assay | system | conditions | how to read | endpoint | result
Cc1cccc(O[C@H]2CCC[C@@H](C(C)CNCc3ccncc3)C2)c1 (relative stereo) | cell-free assay | – | 1 µM | – | inhibition | -1%
CNC1C[S+]2CC[S+]3CC[S+](C1)[Ru-4]321([N]=C=S)[n]2c3ccc(OC)cc3c3c4c(c5cc(F)c[n+]1c5c32)C(=O)NC4=O (stereo not shown) | KinomeScan | – | 0.1 µM | baseline: untreated | remaining binding | 96%
CC(C)=CC1OC(C)(C)C2C=C3C(=O)C(Cl)=CC(O)C3C3C(O)C4OC4C(=O)C132 (stereo not shown) | cell-free assay, competition with immobilised ligand | – | 10 µM | – | remaining binding | 90%
CNC(=O)C[C@H](Cc1ccc(C#N)cc1)NC(=O)c1cc(-c2ccc(CN[C@H](C)c3ccc(C)cc3)o2)ccc1Cl | enzyme activity, inhibitor | – | 1 µM | – | activity vs control | 109%
COc1cc(Nc2nc(C)cc(-c3cnn4nc(OC)ccc34)n2)cc(C(F)(F)F)c1 | inhibitor | – | 1 µM | baseline: control | remaining activity | 100%
CCN1CCN(Cc2ccc(C(=O)Nc3ccc(C)c(NCc4cnc5[nH]ccc5c4OC)c3)cc2C(F)(F)F)CC1 | binding, competition with immobilised ligand | – | 1 µM | – | remaining binding | 10%
Nc1ncc2c(n1)-c1c([nH]c3ccc(C4=CCOCC4)cc13)CCC2 | binding, competition with immobilised ligand | – | 1 µM | – | remaining binding | 90%
Cc1nc2c(F)cc(-c3nc(Nc4ccc(CNC(=O)CCCCCCC(=O)NO)cc4)ncc3F)cc2n1C(C)C | enzyme activity, inhibitor | – | 1 µM | – | inhibition | 39%
NC(=O)[C@@H](O)C[C@H]1CCc2sc3ncnc(O[C@H]4CC[C@H](N5CCOCC5)CC4)c3c21 | enzyme activity, inhibitor | – | 10 µM | – | inhibition | 14%
COc1c(Cl)cccc1Nc1c(-c2ccncc2C#C[C@@]2(C)CCCN2C(=O)/C=C/CN(C)C)[nH]c2c1C(=O)NCC2 | cell-free assay, competition with immobilised ligand | – | 3 µM | – | remaining binding | 82%
Nc1ncc(-c2cc(-c3cnn(CC(F)(F)F)c3)ncc2F)nc1C(=O)NC1CNCC(F)C1 (stereo not shown) | enzyme activity | – | 1 µM | baseline: DMSO control | remaining activity | 99%
Cc1cnc2nc1Nc1cccc(c1)COC/C=C/COCc1cc(ccc1OCCN1CCOCC1)N2 | binding | – | 0.1 µM | – | remaining binding | 98%
N[C@H]1CC[C@H](Nc2nccc(-c3cccnc3Oc3ccc(NC(=O)NC4CC4)c4ccccc34)n2)CC1 | kinobead competition pulldown | HEK293/HCT116 lysate mixture | 10 µM, 1 h, 4 °C | lower = stronger competition | log2 LFQ intensity | 17.7 and 21.6 and 20.5 and 19.7
CNC(=O)C1CCN(c2cc(C)c(F)cc2NC(=O)c2ccc(-c3cc(O)ccc3C)c(C)c2)CC1 | binding, competition with immobilised ligand | – | 1 µM | – | remaining binding | 0%
C=CC(=O)Nc1cccc(-c2cnc3[nH]cc(C(=O)NC(C)(C)C)c3n2)c1 | kinase activity | – | 0.1 µM | – | inhibition | 6% and -2%
Cc1ccc(-c2c(/C=C(\C#N)C(=O)NC(C)C)n(CCCO)c3ncnc(N)c23)cc1 | cell-free assay, competition with immobilised ligand | – | 1 µM | – | remaining binding | 85%

Repeated from above:
Compound | assay | system | conditions | how to read | endpoint | result
Nc1ncc(-c2cc(-c3cnn(CC(F)(F)F)c3)ncc2F)nc1C(=O)NC1CNCC(F)C1 (stereo not shown) | enzyme activity | – | 1 µM | baseline: DMSO control | remaining activity | 99%
Cc1cnc2nc1Nc1cccc(c1)COC/C=C/COCc1cc(ccc1OCCN1CCOCC1)N2 | binding | – | 0.1 µM | – | remaining binding | 98%
